Measured values of several laboratories.
Parts stem from different laboratories: compare values within a part only.

Sample 1
Target: Interferon regulatory factor 5, full length, phosphomimetic (IRF5, Homo sapiens, UniProt Q13568-2, residues 1-514, S451D/S453D/S456D/S462D)
Method: protein-binding microarray
Form: double-stranded DNA, one strand shown
Matrix: in vitro
Concentration: 940 nM top
Notes: 60-bp whole probe
Added: salmon DNA 0.4 mg/ml
Reference: random background probes
Reading: higher = stronger binding
Shared flanks, not repeated: GCCTAGCAC … GTCTTGATTCGCTTGACGCTGCTG
| Strand | fitted relative affinity |
| --- | --- |
| GGGCCCATCATTCCGACCCTGTGCTAG | 0.00308 z-score |
| TCATTTCCCAGAACTGGAACTGTGCTA | 0.194 z-score |
| TCAAGTATTTATCTGCAACTGTGCTAG | 0.303 z-score |
| GACGGGCTCGGTTTCGGGACGTGCTAG | 2.95 z-score |
| TTTGATTTCAGTCTCGATTAGTGCTAG | 4.69 z-score |
| TCATGTAACTCCTATCCAACTGTGCTA | 0.817 z-score |
| GACGGACTGGGACTGGGGTCGTGCTAG | -0.57 z-score |
| GACGGACTGGTGACTGGGGACGTGCTA | -0.539 z-score |
| TCATATGCCGACTTTGGAACTGTGCTA | 0.0815 z-score |
| GACGGTCTCCGACTGCTGACGTGCTAG | -0.611 z-score |
| TTAGATATCGGGTATCCATTAGTGCTA | 0.194 z-score |
| TCAATTGTGGATCTTGCACTGTGCTAG | -0.403 z-score |
| TTAGATAACGGGACTGGATTAGTGCTA | -0.158 z-score |
| TTAGGACAGGACTATCGGTTAGTGCTA | -0.0153 z-score |
| CTCATTTTCATTTTGTGTCTGTGCTAG | 1.36 z-score |
| GACTATCTCAGTCTCGAGACGTGCTAG | 1.39 z-score |
| TTAGGTATCGACACCGGGTTAGTGCTA | 5.05 z-score |
| GACGGTAACGGTATCGGGACGTGCTAG | 1.52 z-score |
| GACGGTTTCGGTTCCGGGCCGTGCTAG | 13.5 z-score |

Sample 2
Target: Histone acetyltransferase KAT6A, winged helix 1, GST fusion (KAT6A, Homo sapiens, UniProt Q92794, residues 1-85)
Method: protein binding microarray
Form: double-stranded DNA, one strand shown
Matrix: in vitro
Concentration: not given
Notes: 8-mer, flanks averaged, mean of 2 arrays, mostly near background
Reference: not given
Reading: higher = stronger binding
Construct (chain): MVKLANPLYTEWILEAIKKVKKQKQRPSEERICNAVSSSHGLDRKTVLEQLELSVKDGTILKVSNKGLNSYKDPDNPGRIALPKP
| Strand | E-score |
| --- | --- |
| ACACGCCC | 0.141 |
| CCGGTTCC | 0.303 |
| CAAGCGGG | 0.276 |
| ATCTTCAC | -0.116 |
| AGTGTTAC | -0.0112 |
| ATGCATAA | -0.0248 |
| AGATGCGC | 0.299 |
| AAATGCTG | -0.365 |
| CCCTCCGC | 0.133 |
| GGCGGTAC | 0.314 |
| CAATAGAA | -0.06 |
| CATTCTTA | -0.186 |
| AAGAAGTC | -0.118 |
| GAACAACA | -0.0833 |
| CCACGATA | -0.28 |
| CGACCCTA | -0.0806 |

Sample 3
Target: Ras GTPase-activating protein-binding protein 1, RRM domain (G3BP1, Homo sapiens, UniProt Q13283)
Chain of UniProt Q13283 (whole entry, looked up): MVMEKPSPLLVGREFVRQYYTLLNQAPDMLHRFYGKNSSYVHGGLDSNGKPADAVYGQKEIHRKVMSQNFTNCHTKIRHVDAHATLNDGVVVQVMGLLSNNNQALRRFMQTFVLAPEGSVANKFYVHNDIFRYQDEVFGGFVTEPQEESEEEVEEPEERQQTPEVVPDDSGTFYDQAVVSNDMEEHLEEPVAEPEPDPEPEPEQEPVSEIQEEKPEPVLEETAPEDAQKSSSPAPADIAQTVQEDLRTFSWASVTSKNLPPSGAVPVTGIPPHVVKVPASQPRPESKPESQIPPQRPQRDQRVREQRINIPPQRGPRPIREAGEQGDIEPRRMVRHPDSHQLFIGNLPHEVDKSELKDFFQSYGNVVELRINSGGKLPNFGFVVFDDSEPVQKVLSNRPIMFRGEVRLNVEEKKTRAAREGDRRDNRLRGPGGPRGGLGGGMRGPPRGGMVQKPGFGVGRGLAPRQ
Method: RNA Bind-n-Seq
Form: RNA
Matrix: in vitro
Concentration: 1 µM
Notes: whole 134-nt RNA, ends assumed
Added: 150 mM KCl
Reference: input library
Reading: higher = stronger binding
| Strand | log2 enrichment |
| --- | --- |
| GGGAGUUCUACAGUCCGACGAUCUCCUCAAGUCCUGUGCUACACAUCGUAUGUACCGAAUCGGCGGCGGCGGGGAAAGUAUUAUGUUACGCCGUUCGGAUCUGCACUUCCAGCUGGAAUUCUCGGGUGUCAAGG | -0.215 |
| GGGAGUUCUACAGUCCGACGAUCUGGGAGGUGGAUUUUGUUUAUUUUUUUUGCUCAUUUCCAGGGGUGGGAAUUUUUUUUUAAUAUGUGUCAUGAAUAAAGUUGUUUUUGAAAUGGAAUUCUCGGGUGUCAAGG | 1.6 |
| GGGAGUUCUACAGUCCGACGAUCUGGGAGGUGGAUUUAGUUUAUUUUUUUAGCUCAUUUCCAGGGGUGGGAAUUUUUUUUUAAUAUGUGUCAUGAAUAAAGUUGUUUUUGAAAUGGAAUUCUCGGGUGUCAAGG | 1.57 |
| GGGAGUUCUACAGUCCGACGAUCCCUGUGCUACACAUCGUAUGUACCGAAUCGGCCCCCCGGGGCCCCCCGGGCCCCCCGGGGAAAGUAUUAUGUUACGCCGUUCGGAUCUGCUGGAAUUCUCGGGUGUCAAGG | -0.615 |
| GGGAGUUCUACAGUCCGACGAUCCCUGUGCUACACAUCGUAUGUACCGAAUCGGGGAGGGGAAAAAAAGGGGAAAAAAAGGGGAAAGUAUUAUGUUACGCCGUUCGGAUCUGCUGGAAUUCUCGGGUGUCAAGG | 0.388 |
| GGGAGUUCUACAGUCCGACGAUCUCAAGUCCUGUGCUACACAUCGUAUGUACCGAAUCGGUUUUUGGUGGAAAAAGGAAAGUAUUAUGUUACGCCGUUCGGAUCUGCACUUCCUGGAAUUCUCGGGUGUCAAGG | -0.076 |
| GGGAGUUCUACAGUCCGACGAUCCCUCAAGUCCUGUGCUACACAUCGUAUGUACCGAAUCGGUUUGGAGGUUUGGAAAGUAUUAUGUUACGCCGUUCGGAUCUGCACUUCCAGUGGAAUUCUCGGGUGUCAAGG | -0.258 |
| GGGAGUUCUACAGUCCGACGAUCUUAAGACAGUCAUUUUAAAAUGGUGGCUGAAUUUCCCAACCCACCCCCAAACUAAACACUAAGUUUAAUUUUCAGCUCCUCUGUUGGACAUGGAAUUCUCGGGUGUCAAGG | -0.0108 |
| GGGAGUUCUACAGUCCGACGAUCAGUCCUGUGCUACACAUCGUAUGUACCGAAUCGGGAGGGUUUUUUUGGGAAAAAGGGAAAGUAUUAUGUUACGCCGUUCGGAUCUGCACUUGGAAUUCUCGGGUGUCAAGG | 0.403 |

Sample 4
Target: Hepatocyte nuclear factor 3-beta, forkhead domain (FOXA2, Homo sapiens, UniProt Q9Y261, residues 142-269)
Method: protein-binding microarray
Form: double-stranded DNA, one strand shown
Matrix: in vitro
Concentration: not given
Notes: k-mer, scored over probes, only values ≥0.25
Reading: higher = stronger binding
Target sequence (chain): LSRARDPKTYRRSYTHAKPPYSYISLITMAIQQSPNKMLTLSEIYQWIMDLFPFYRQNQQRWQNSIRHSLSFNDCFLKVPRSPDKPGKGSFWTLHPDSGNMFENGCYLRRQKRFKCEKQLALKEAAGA
| Strand | E-score |
| --- | --- |
| AAACACAT | 0.326 |
| AAACATTT | 0.251 |
| GTGTTGTA | 0.268 |
| ACTGATAA | 0.291 |
| GCACACAA | 0.279 |
| TAGATACA | 0.307 |
| AAATATCT | 0.291 |
| ATGTTGTA | 0.345 |
| CTGTTATA | 0.307 |
| AAGCAAAC | 0.263 |
| GTTGTTAA | 0.31 |
| GTAAAGTA | 0.321 |
| GTGTTATA | 0.324 |
| CATAATTA | 0.353 |
| AATACATT | 0.308 |
| ACCTATAT | 0.341 |
| GTATCGTA | 0.308 |

Sample 5
Target: PABPC1L2, full length, GST fusion (mouse, UniProt A0ABA7IW68)
Method: RNAcompete
Form: RNA
Matrix: in vitro
Concentration: 20 nM
Notes: 7-mer, probes averaged, single round
Reference: mean of 7-mers
Reading: higher = stronger binding
Target sequence (chain): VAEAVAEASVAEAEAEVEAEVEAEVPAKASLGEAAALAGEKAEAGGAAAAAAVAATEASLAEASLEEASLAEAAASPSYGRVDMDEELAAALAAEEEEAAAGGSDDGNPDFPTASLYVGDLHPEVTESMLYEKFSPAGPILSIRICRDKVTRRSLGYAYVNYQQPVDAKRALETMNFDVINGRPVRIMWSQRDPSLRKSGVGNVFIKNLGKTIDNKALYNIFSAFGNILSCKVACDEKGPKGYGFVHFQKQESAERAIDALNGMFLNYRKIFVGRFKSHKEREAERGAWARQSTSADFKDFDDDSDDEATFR
| Strand | 7-mer Z-score |
| --- | --- |
| UUAGAGA | 0.106 |
| CCUAGCA | -0.184 |
| AGGCCAU | -0.0246 |
| CAGCUAU | -0.137 |
| CUUAGCC | -0.374 |
| CUUGAUA | -0.162 |
| GUGCAGG | 0.126 |
| UUCCUCU | -0.394 |
| AGGUUAU | -0.0228 |
| GUCCAAG | -0.0736 |
| AUGUAAU | -0.0246 |
| GACGUGC | 0.0315 |
| GUCACCU | -0.213 |
| AUCUGCC | -0.286 |
| UCAUUAC | -0.242 |
| CUAGGGC | -0.00289 |
| GGGUACC | -0.115 |
| ACGGCAU | -0.0156 |
| ACACGCG | -0.0699 |
| AAUGACU | 0.0841 |

Excerpt of the above (sample 5):
| Strand | 7-mer Z-score |
| --- | --- |
| UUCCUCU | -0.394 |
| AGGUUAU | -0.0228 |
| GUCCAAG | -0.0736 |
| AUGUAAU | -0.0246 |
| GACGUGC | 0.0315 |
| GUCACCU | -0.213 |
| AUCUGCC | -0.286 |
